Assay results collected from several papers.
Every numbered part comes from another study and shows a few of its results, in no order. Changes are numbered by the printed parent chain.

Set 1
Target: CCNB3, cyclin fold, Cln2 fusion (human)
Technique: yeast growth competition, sequencing
Medium: yeast
Notes: weak parent motif
Relative to: not given
Reading: higher = stronger binding
Parent: PKMYT1 docking peptide (human); SFEPRNLLSLFED; partner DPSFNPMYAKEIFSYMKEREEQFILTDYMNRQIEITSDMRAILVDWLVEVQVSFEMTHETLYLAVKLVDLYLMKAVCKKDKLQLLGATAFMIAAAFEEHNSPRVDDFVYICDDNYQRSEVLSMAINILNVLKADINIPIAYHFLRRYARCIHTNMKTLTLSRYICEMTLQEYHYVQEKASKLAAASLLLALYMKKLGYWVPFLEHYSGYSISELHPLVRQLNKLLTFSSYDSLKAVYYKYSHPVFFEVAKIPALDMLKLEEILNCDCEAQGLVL
Under “normalised enrichment score”, `F11A` is recorded as 0.504.
For `N6V`, “normalised enrichment score” read 0.473.
For `D13P`, “normalised enrichment score” read 0.431.
`L7T`: “normalised enrichment score” 0.297.
`S1W` — result for “normalised enrichment score”: 0.491.
For `S1E`, “normalised enrichment score” read -0.144.
Under “normalised enrichment score”, `S9D` is recorded as 0.286.
Under “normalised enrichment score”, `L8E` is recorded as -2.36.
Under “normalised enrichment score”, `F11D` is recorded as 0.248.
Under “normalised enrichment score”, `S9N` is recorded as 0.23.
Under “normalised enrichment score”, `S9V` is recorded as 0.556.
For `S1T`, “normalised enrichment score” read 0.165.
`N6E` — result for “normalised enrichment score”: 0.44.
`E3K` — result for “normalised enrichment score”: 0.648.
For `F2I`, “normalised enrichment score” read 0.217.
Under “normalised enrichment score”, `N6W` is recorded as 0.584.
`D13C`: “normalised enrichment score” 0.384.

Set 2
Target: CEBPB, bZIP domain (human)
Technique: DHFR protein complementation
Medium: yeast
Notes: single substitutions, most at no-binding floor
Relative to: wild-type JUN-FOS pair
Reading: higher = stronger binding
Parent: JUN, bZIP domain (human); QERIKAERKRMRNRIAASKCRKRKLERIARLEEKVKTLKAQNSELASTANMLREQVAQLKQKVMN; partner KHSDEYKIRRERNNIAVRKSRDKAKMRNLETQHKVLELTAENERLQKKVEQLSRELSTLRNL
With `E32R` the binding fitness was -1.41 natural log.
`I28Q` has a binding fitness of -0.851 natural log.
`L45H` has a binding fitness of -1.56 natural log.
For `K36V`, the binding fitness was -1.37 natural log.
`T48R` gave a binding fitness of -1.05 natural log.
`S47T` has a binding fitness of -1.36 natural log.
`I28T` has a binding fitness of -1.23 natural log.
The binding fitness of `A49N` is reported as -1.41 natural log.
`E54Q` has a binding fitness of -1.46 natural log.
With `A57T` the binding fitness was -1.24 natural log.
For `I28R`, the binding fitness was -1.13 natural log.
`E44Q` has a binding fitness of -1.26 natural log.
The binding fitness of `E33R` is reported as -1.39 natural log.
`N42I` has a binding fitness of -1.51 natural log.
For `M51V`, the binding fitness was -1.32 natural log.
`L45M` gave a binding fitness of -1.54 natural log.
`T37K` gave a binding fitness of -1.36 natural log.
`E32F` has a binding fitness of -1.48 natural log.
`R53K` gave a binding fitness of -1.17 natural log.

Set 3
Target: RNA binding protein fox-1 homolog 2, RRM domain, GST-SBP tag (RBFOX2, Homo sapiens, UniProt O43251-10, residues 100-194)
Technique: RNA Bind-n-Seq
Molecule type: RNA
Medium: in vitro
Concentration: 365 nM
Notes: natural RNA segment, single round, ends assumed
Relative to: no-protein control
Reading: higher = stronger binding
`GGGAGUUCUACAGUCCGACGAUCUUUGGUUUCUGUAUUUUUCACAAUGAUUAAUGAACAAAAACAAAGAGAAAAAAACACACAUCAAUUAAAGGAGACAAAAAGAGGCAGAGCGAGUAGAGAGCAGCCCUCAUUGGAAUUCUCGGGUGCCAA`: “RBNS enrichment (R)” 0.569.
`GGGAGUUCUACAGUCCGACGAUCGGGAGCUUGUUUUCAACAUUGCUUAUAUUUGAAUAGUAGAAAACCCGACAUUGAUGUUUCUUCCUGUUGCAAGGUGGGGCUUUAAACUUUCAAGGUACAAAAGUAUGUCUUGGAAUUCUCGGGUGCCAA` — result for “RBNS enrichment (R)”: 0.666.
`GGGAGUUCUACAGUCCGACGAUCAAGUCUAGUAAGAAUUAAUUACACAGAAGCCUCCUUUCAUUUCUAUGGGCCAAACAAAGGCCAUGGAUAACCCUACCCGCUUUAUGUCAUUACCCAUUGGGAAACACAAUUGGAAUUCUCGGGUGCCAA`: “RBNS enrichment (R)” 0.436.
`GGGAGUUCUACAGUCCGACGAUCGAGGUCUUUUAAUCUGAUGUUCUCAGAAGGGGGUGGAUUUAAAUCCUGAAAUAAAUAUUUCAACACAGAACACAGGCCUGAUUCUGCCUUGGACAUGUCAAAAUCUGGGGUGGAAUUCUCGGGUGCCAA` — result for “RBNS enrichment (R)”: 0.619.
`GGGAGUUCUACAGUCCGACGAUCGGCAGAAAUGAAGGGAUUUCAUUUGAACUUAGAGCAUGAUGAAUUUGAGUGGGUGCACAGGAAGCAGCUAGCGGAUAGGAAGGCACUCUGCUCUGUGAUGGCAAGUGAAGUGGAAUUCUCGGGUGCCAA`: “RBNS enrichment (R)” 10.1.
`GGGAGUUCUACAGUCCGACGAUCAAGCUCGGGAAGUGGCUGGCUGGCUGGCUGGCAUGUCUAGACGCCUGGUGAGUUAUCAGCCAGUUAAACUUGUAAGCCAGUUUUGUUUAUAAUAAAGAUAUAAGUGGAUUUGGAAUUCUCGGGUGCCAA` — result for “RBNS enrichment (R)”: 1.73.
For `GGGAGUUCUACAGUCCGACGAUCGCAGUUGUGCCCGUUUUUUGACAUCUGUGUCCCUUCAUGUUGCAUCAUCUGUACUAUUCUGUGUUACUCUUGGUUUCUGGCCACUUUUCAGAAUGAAGAUGAAUGGCCUGUGGAAUUCUCGGGUGCCAA`, “RBNS enrichment (R)” read 1.76.
`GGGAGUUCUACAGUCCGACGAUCUUAGCAUUGCAUUUCAGUACUGACUGUGUAAGCUAAAUUGCUGAUCCAAAAUAAAAACCCAGACUAGAAUAGGGUUCUUAAAAUCAAGUAUCAAUACAAAAUAGAACACAUGGAAUUCUCGGGUGCCAA` — result for “RBNS enrichment (R)”: 0.586.

Set 4
Target: ABI1, truncated, D143A, DHFR fusion (Arabidopsis thaliana, UniProt P49597)
Technique: DHFR PCA, dose-response
Medium: yeast
Notes: Hill fit, mean, not affinity
Together with: (+)-ABA, dose series
Reading: lower = more sensitive
Parent: PYL1, truncated, DHFR fusion (Arabidopsis thaliana, UniProt Q8VZS8); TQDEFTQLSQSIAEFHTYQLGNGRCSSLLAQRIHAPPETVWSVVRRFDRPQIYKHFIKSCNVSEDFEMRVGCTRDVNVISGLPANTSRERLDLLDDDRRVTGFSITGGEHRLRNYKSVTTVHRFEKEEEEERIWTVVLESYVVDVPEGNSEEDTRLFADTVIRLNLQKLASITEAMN
The ABA EC50 of `I172T` is reported as 8.96 µM.
The ABA EC50 of `Q19C` is reported as 4.08 µM.
`E151H` gave an ABA EC50 of 6.59 µM.
`R111I` has an ABA EC50 of 183 µM.
With `P83Q` the ABA EC50 was 91.8 µM.
`E125I` has an ABA EC50 of 1.55 µM.
`I79T` gave an ABA EC50 of 10.1 µM.
`L29K` gave an ABA EC50 of 43.2 µM.
`M68S` has an ABA EC50 of 16.1 µM.
With `Q31M` the ABA EC50 was 15.7 µM.
`M68N` gave an ABA EC50 of 4.41 µM.
`R32T` gave an ABA EC50 of 2.31 µM.
With `G108H` the ABA EC50 was 215 µM.
With `S117G` the ABA EC50 was 145 µM.
The ABA EC50 of `V136I` is reported as 1.1 µM.
With `E130F` the ABA EC50 was 5.28 µM.
For `V43N`, the ABA EC50 was 250 µM.
The ABA EC50 of `W134C` is reported as 0.986 µM.

Excerpt of the above (set 1):
Under “normalised enrichment score”, `S9N` is recorded as 0.23.
Under “normalised enrichment score”, `F11D` is recorded as 0.248.
`S1W` — result for “normalised enrichment score”: 0.491.
For `S1T`, “normalised enrichment score” read 0.165.
`N6E` — result for “normalised enrichment score”: 0.44.
For `F2I`, “normalised enrichment score” read 0.217.
For `D13P`, “normalised enrichment score” read 0.431.
Under “normalised enrichment score”, `S9D` is recorded as 0.286.
`E3K` — result for “normalised enrichment score”: 0.648.
